Results from different studies.
Numbered parts are unrelated; each lists some results of a single study. Changes are numbered by the printed parent chain.

Study 1
Target: CCNB2, cyclin fold, Cln2 fusion (human)
Method: yeast growth competition, sequencing
Matrix: yeast
Notes: strong parent motif
Baseline: not given
Direction: higher = stronger binding
Starting sequence: MICAL3 docking peptide (human); LQLRRQLSFSEDS; partner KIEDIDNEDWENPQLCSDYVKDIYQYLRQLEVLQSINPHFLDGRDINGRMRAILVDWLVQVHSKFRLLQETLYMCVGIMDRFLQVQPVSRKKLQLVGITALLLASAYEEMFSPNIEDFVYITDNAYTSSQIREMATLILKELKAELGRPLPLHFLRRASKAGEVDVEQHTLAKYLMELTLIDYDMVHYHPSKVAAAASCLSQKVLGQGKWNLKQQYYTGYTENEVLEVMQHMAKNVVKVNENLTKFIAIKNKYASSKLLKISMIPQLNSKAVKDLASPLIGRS
For `S10Y`, “normalised enrichment score” read 1.3.
Under “normalised enrichment score”, `L3N` is recorded as 0.468.
`L7I`: “normalised enrichment score” 1.89.
`S8V` — result for “normalised enrichment score”: 1.29.
Under “normalised enrichment score”, `R4Y` is recorded as 1.58.
For `F9C`, “normalised enrichment score” read 0.246.
For `L7K`, “normalised enrichment score” read 0.392.
`Q2D`: “normalised enrichment score” 2.61.
`S10W`: “normalised enrichment score” 0.623.
For `D12I`, “normalised enrichment score” read 2.85.
Under “normalised enrichment score”, `D12K` is recorded as 2.
`E11Y`: “normalised enrichment score” 1.71.
`L3D`: “normalised enrichment score” 0.145.
Under “normalised enrichment score”, `R4C` is recorded as 2.44.
`Q2H`: “normalised enrichment score” 3.09.
`F9L` — result for “normalised enrichment score”: 0.000377.
`S8P`: “normalised enrichment score” 0.249.
`Q6R` — result for “normalised enrichment score”: 4.92.
Under “normalised enrichment score”, `E11M` is recorded as 1.65.
`L7V`: “normalised enrichment score” 0.0737.
`L7G` — result for “normalised enrichment score”: -0.124.
`R5S`: “normalised enrichment score” 0.11.
`F9R` — result for “normalised enrichment score”: 1.11.
`R4W`: “normalised enrichment score” 0.979.
For `D12T`, “normalised enrichment score” read 2.55.

Study 2
Target: Histone acetyltransferase KAT6A, winged helix 1, GST fusion (KAT6A, Homo sapiens, UniProt Q92794, residues 1-85)
Method: protein binding microarray
Form: double-stranded DNA, one strand shown
Matrix: in vitro
Concentration: not given
Notes: 8-mer, flanks averaged, mean of 2 arrays, mostly near background
Baseline: not given
Direction: higher = stronger binding
Target sequence (chain): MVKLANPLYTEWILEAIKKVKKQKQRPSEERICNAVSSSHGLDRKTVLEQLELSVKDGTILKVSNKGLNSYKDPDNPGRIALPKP
With `AACCAGCT` the E-score was -0.254.
With `AGAGGTAA` the E-score was -0.193.
`CAGTGGGC` gave an E-score of -0.208.
For `GCCCAGCA`, the E-score was -0.0926.
The E-score of `AGTACCGA` is reported as 0.0599.
With `AAGTTGAT` the E-score was -0.172.
With `CCATTCGG` the E-score was -0.0645.
The E-score of `CCCTCCCC` is reported as 0.144.
For `AGAGCGCT`, the E-score was 0.251.
The E-score of `AATGCCAC` is reported as -0.166.
`AGTTAAGA` has an E-score of -0.168.
`AATACCGT` gave an E-score of 0.242.
For `GAGGCGTA`, the E-score was 0.147.
`CGGTTCTC` gave an E-score of 0.0739.
`CAGAATCA` has an E-score of -0.177.
`AAGGGCTA` gave an E-score of -0.0987.
`ATCGGCCG` has an E-score of 0.39.
`GTCGCACA` has an E-score of 0.146.
For `AGAATGCT`, the E-score was -0.155.
With `ACAATGTC` the E-score was -0.0305.
For `AAGAATAA`, the E-score was -0.123.
With `CCATAGAG` the E-score was -0.0827.
`ACGAGCCA` has an E-score of -0.186.
`AGCCACGG` gave an E-score of 0.225.
`CAAGTAAG` gave an E-score of -0.249.

Study 3
Target: RNA binding protein fox-1 homolog 2, RRM domain, GST-SBP tag (RBFOX2, Homo sapiens, UniProt O43251-10, residues 100-194)
Method: RNA Bind-n-Seq
Form: RNA
Matrix: in vitro
Concentration: 365 nM
Notes: natural RNA segment, single round, ends assumed
Baseline: no-protein control
Direction: higher = stronger binding
Under “RBNS enrichment (R)”, `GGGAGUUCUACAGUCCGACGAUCAGACUUGGGGCCAUGUGCCUCCCCACACAUGGGCAAGGACAGGUGGAAUGUCGGGACCACACUGUGCGGCUUCUCGGCACAAAGCGGAGGGAGGCUGUGGUCGCUGCCGGUGGAAUUCUCGGGUGCCAA` is recorded as 0.574.
For `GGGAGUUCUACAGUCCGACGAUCUUUCCAAGUUAUAAAGUCUACUGCAGCAUUCAUGUGUAGCGGGGAAGCCUACGUAAGCAAACGACUACAGCUCCUUCCCCCCAGGACUUGCACUUGCACUAGAGCAGCCGUGGAAUUCUCGGGUGCCAA`, “RBNS enrichment (R)” read 0.605.
For `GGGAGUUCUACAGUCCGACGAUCGACCUCGGGCAAGGCCCUCUCUGGGCCUCGGUGGCCUGUGGAUAAGGAGGGGAGACCCCCACUCGCCUGCCUGCCUGCAUCACGGGGCCAUUGUGAGGUUGGGGGAAGACUGGAAUUCUCGGGUGCCAA`, “RBNS enrichment (R)” read 3.65.
Under “RBNS enrichment (R)”, `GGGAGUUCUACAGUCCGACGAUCUUGUUUAAUUACAGUCGGAAAGACUUAAGGUUUUUCUUUUAAUUUAAUUUAUUCCCUGACAUUGCUGGUGACACUGGGAAGGGAACAAGCCACAGGGAUGAGGUGAAGCCUGGAAUUCUCGGGUGCCAA` is recorded as 0.511.
`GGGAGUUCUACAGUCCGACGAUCAGGAAUUGGGCCACCUGUGGCAUCAAGACUGCAACUUGACAAUCACGGUUUGCUGAUCUCAAACGGGCACUUAAAGCCUGGUAUGGGUGUGUGAUUUAGUGACUGAGCCUUGGAAUUCUCGGGUGCCAA`: “RBNS enrichment (R)” 0.661.
Under “RBNS enrichment (R)”, `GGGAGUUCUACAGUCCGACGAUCAGGCUGGGCGGCCAGCCUUGCACUAUGUCCCAGCCCCACUACUGAACACUACUGACUUAGACUGCUGACUGCCAGAGGUAGCUACCCUCAUGCCAUCGCCAUGACCCCCCUGGAAUUCUCGGGUGCCAA` is recorded as 0.709.
`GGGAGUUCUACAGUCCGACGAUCGAUAAACAUUCCAUCCCCUGCUGUUCUGAUAAUGUGAAGUCAGAUGAGGGUUCCCAGGUUAUGUGGCACCUGCGGAAACCAUGUCUAGAGUCGUUUCUAUGUAGCUUGGCUGGAAUUCUCGGGUGCCAA` — result for “RBNS enrichment (R)”: 1.43.
`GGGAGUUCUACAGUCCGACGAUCUUCUCUUCCCUUGUCCUUCCUCCUUGGCUCUUCUGUCCUUUCCUUCCCUGUGCAGACAGGACUAUGGUCUUCUUGCCCAAAGACUUUCAUCUGGACUGUCUAUAGAGUAAUGGAAUUCUCGGGUGCCAA` — result for “RBNS enrichment (R)”: 0.423.

Study 4
Target: TAR DNA-binding protein 43, full length, His tag (TARDBP, Homo sapiens, UniProt Q13148, residues 1-414)
Method: RNA Bind-n-Seq
Form: RNA
Matrix: in vitro
Concentration: 20 nM
Notes: 6-mer, flanks averaged, single round
With: 150 mM KCl
Baseline: input library
Direction: higher = stronger binding
`UAGGUG` — result for “6-mer enrichment (R)”: 1.38.
For `CCUGGA`, “6-mer enrichment (R)” read 0.805.
`CCGGGG` — result for “6-mer enrichment (R)”: 3.59.
`CUAUUC` — result for “6-mer enrichment (R)”: 0.547.
Under “6-mer enrichment (R)”, `GUCCGG` is recorded as 1.57.
`GGCUCA` — result for “6-mer enrichment (R)”: 0.971.
Under “6-mer enrichment (R)”, `UGGGUU` is recorded as 1.61.
For `UUUGAC`, “6-mer enrichment (R)” read 0.629.
For `GGUUUC`, “6-mer enrichment (R)” read 0.752.
Under “6-mer enrichment (R)”, `AGACAA` is recorded as 0.687.
`CGAAGC` — result for “6-mer enrichment (R)”: 0.781.
`UUAUCG` — result for “6-mer enrichment (R)”: 0.596.
Under “6-mer enrichment (R)”, `UACAUU` is recorded as 0.567.
Under “6-mer enrichment (R)”, `UUGUGU` is recorded as 1.04.
`UUUCUA` — result for “6-mer enrichment (R)”: 0.579.
`UUACCU` — result for “6-mer enrichment (R)”: 0.583.
`UCGGAU` — result for “6-mer enrichment (R)”: 0.739.
For `GUACGG`, “6-mer enrichment (R)” read 1.74.
`UUCGCA` — result for “6-mer enrichment (R)”: 0.609.

Some of these lines once more (study 4):
For `CCUGGA`, “6-mer enrichment (R)” read 0.805.
Under “6-mer enrichment (R)”, `GUCCGG` is recorded as 1.57.
`CUAUUC` — result for “6-mer enrichment (R)”: 0.547.
`UCGGAU` — result for “6-mer enrichment (R)”: 0.739.
`UAGGUG` — result for “6-mer enrichment (R)”: 1.38.
`GGCUCA` — result for “6-mer enrichment (R)”: 0.971.
For `GGUUUC`, “6-mer enrichment (R)” read 0.752.
`UUAUCG` — result for “6-mer enrichment (R)”: 0.596.
For `GUACGG`, “6-mer enrichment (R)” read 1.74.
